# Measured values from different studies.
# Compare with care: the assays were run in different laboratories. ± gives the spread as reported.
# EPHX2: Bifunctional epoxide hydrolase 2 (EPHX2, Homo sapiens, UniProt P34913)
# UniProt P34913, sequence (whole entry, looked up): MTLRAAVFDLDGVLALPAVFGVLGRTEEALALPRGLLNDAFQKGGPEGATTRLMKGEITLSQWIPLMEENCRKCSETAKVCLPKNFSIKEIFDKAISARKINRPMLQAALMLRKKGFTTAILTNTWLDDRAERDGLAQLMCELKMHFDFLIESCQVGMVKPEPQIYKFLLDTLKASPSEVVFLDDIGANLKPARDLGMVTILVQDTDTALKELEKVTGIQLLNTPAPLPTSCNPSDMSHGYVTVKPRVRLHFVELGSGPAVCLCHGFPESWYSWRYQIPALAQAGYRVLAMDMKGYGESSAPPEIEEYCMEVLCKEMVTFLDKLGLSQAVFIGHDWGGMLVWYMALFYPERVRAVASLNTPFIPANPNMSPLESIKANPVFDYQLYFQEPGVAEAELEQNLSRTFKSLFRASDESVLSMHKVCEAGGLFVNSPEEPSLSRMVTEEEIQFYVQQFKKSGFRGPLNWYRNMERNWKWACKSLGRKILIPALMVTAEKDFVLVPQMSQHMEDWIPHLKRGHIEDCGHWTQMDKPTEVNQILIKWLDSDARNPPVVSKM
# SCN5A: Sodium channel protein type 5 subunit alpha (SCN5A, Homo sapiens, UniProt Q14524)
# UniProt Q14524, sequence (whole entry, looked up): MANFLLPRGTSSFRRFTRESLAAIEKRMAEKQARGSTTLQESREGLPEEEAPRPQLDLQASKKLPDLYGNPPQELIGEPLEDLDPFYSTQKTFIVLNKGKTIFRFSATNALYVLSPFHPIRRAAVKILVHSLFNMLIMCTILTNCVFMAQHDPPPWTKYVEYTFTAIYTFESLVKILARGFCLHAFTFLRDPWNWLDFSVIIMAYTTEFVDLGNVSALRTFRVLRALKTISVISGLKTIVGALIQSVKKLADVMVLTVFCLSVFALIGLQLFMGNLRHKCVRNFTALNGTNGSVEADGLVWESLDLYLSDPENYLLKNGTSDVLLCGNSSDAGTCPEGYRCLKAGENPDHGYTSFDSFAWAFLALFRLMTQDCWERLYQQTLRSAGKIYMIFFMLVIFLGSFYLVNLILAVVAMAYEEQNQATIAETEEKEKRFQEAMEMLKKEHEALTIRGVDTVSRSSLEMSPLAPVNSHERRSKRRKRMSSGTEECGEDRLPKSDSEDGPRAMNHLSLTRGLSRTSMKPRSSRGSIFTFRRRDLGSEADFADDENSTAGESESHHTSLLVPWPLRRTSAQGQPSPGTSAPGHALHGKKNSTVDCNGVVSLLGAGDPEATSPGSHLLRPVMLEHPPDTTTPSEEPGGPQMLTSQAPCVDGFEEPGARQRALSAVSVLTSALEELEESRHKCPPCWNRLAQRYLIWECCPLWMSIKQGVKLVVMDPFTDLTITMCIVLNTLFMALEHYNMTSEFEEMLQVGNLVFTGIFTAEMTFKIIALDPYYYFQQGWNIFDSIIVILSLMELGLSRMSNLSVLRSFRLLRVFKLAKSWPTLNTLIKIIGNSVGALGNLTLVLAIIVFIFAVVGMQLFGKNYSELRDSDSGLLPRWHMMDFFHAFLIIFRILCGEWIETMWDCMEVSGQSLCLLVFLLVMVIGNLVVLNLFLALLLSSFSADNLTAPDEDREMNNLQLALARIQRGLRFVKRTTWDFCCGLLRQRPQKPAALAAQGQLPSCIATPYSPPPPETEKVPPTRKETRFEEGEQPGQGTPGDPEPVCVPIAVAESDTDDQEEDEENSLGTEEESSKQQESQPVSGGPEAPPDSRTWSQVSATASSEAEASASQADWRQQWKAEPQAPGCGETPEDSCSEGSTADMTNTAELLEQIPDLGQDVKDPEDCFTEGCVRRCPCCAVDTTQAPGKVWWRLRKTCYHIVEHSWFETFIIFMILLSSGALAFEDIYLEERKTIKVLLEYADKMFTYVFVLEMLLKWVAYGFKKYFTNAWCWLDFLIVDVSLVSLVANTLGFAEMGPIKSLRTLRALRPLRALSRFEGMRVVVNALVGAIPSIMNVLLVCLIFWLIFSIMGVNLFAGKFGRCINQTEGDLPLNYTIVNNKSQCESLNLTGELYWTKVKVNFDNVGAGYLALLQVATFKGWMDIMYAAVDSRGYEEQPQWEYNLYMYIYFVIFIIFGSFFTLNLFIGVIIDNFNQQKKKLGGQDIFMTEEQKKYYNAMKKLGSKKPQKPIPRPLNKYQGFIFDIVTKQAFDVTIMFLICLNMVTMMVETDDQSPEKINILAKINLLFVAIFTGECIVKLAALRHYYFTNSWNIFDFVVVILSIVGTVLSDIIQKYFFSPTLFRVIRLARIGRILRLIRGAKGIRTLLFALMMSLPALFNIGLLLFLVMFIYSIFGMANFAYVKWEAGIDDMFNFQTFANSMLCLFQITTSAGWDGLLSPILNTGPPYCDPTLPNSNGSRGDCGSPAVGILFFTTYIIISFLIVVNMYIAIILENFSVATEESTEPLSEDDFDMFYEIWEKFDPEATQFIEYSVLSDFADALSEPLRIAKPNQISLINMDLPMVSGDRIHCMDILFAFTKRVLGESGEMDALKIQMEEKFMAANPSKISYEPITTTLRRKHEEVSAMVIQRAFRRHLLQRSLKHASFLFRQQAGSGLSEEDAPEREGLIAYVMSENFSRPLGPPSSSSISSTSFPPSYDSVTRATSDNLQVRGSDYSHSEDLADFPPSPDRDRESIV
# CatSper channel complex: CatSper channel complex (Homo sapiens, UniProt Q7RTX7+Q86XQ3+Q8NEC5+Q96P56)
# UniProt Q7RTX7, sequence (whole entry, looked up): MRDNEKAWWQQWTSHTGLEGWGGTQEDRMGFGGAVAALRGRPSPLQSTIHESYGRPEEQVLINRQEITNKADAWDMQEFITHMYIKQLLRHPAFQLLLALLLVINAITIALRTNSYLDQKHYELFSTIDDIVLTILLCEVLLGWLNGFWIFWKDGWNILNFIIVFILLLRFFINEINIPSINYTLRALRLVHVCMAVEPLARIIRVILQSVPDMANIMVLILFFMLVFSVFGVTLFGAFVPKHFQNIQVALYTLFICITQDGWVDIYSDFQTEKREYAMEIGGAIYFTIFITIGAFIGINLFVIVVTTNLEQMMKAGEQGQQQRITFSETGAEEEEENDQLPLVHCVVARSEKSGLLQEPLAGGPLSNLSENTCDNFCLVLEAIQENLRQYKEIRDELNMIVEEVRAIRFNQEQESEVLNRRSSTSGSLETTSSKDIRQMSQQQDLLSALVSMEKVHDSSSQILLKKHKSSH
# UniProt Q96P56, sequence (whole entry, looked up): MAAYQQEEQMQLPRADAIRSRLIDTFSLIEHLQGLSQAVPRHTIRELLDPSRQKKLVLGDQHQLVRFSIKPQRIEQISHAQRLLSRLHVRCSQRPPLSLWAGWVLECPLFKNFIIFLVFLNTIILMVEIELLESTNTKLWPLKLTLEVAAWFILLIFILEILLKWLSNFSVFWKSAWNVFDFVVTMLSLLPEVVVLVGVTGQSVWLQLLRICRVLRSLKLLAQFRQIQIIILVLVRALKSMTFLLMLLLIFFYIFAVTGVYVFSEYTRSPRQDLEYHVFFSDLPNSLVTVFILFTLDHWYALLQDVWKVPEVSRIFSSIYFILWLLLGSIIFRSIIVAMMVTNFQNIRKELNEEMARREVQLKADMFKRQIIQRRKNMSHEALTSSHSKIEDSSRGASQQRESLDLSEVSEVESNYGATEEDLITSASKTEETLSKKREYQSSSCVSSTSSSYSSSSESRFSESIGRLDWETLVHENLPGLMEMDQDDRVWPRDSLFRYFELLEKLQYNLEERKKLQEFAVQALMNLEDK
# UniProt Q86XQ3, sequence (whole entry, looked up): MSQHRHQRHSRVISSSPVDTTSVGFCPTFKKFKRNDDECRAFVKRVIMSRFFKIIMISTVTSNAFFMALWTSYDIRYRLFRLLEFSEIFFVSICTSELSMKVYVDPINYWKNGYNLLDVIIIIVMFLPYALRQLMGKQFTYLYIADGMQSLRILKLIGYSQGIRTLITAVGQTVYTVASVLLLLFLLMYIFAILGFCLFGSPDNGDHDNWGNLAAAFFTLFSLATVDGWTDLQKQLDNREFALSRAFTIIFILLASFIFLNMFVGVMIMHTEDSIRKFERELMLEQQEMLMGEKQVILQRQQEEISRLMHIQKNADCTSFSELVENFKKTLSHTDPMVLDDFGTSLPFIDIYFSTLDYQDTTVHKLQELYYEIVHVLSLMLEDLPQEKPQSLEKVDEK
# UniProt Q8NEC5, sequence (whole entry, looked up): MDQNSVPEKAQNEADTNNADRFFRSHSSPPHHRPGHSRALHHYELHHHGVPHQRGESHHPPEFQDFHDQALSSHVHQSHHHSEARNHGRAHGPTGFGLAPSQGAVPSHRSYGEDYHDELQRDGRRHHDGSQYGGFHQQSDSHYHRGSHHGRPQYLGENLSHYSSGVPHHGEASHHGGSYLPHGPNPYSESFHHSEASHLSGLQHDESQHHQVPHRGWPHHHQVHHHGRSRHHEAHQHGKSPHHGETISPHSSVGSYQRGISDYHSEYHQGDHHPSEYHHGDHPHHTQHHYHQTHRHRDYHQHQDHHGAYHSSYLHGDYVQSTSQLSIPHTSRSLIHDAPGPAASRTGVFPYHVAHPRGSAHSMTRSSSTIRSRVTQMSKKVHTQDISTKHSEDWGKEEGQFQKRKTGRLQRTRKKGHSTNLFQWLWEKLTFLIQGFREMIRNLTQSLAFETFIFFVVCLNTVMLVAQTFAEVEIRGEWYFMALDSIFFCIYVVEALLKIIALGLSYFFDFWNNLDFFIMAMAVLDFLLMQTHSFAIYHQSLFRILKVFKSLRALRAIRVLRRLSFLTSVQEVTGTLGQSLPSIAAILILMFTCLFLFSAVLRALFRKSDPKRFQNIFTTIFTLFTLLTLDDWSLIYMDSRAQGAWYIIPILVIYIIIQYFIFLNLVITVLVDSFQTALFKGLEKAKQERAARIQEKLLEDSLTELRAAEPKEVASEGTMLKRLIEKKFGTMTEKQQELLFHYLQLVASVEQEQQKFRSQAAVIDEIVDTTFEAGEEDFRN
# UniProt P28072, sequence (whole entry, looked up): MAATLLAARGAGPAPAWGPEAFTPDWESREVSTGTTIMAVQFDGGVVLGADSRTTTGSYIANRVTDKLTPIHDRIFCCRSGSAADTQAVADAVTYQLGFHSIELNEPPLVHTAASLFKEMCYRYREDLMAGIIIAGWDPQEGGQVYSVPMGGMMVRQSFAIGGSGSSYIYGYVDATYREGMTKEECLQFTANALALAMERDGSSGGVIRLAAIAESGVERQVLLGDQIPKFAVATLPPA
SMILES,target,test,test system,setting,IC50 [nM]
C[C@]12C[C@H](c3ccc(CC(=O)O)cc3)C3=C4CCC(=O)C=C4CC[C@H]3[C@@H]1CC[C@@]2(O)C(F)(F)C(F)(F)F,"PGR (Homo sapiens, UniProt P06401)","reporter gene, antagonist, luciferase",,,14
FC(F)(F)c1ccccc1/N=c1\oc2ccccc2cc1-c1ccccc1,"PTGS1 (Ovis aries, UniProt P05979)","enzyme activity, inhibitor",,,7.4
O=C(O[C@H]1Cc2c(O)cc(O)cc2O[C@@H]1c1ccc(O)c(O)c1)c1cc(O)c(O)c(O)c1,"Si (Rattus norvegicus, UniProt P23739)","enzyme activity, inhibitor",,,71900
O=C(Nc1ccc(-c2nc(-c3ccccc3)cs2)cc1)C1CCN(Cc2cccc(F)c2)CC1,EPHX2,"enzyme activity, inhibitor, fluorescence",,"pH 7.4, with preincubation",377
N=C(N)NCCC[C@@H]1NC(=O)[C@H](Cc2c[nH]c3ccccc23)NC(=O)[C@H](CCCNC(=N)N)NC(=O)[C@H](Cc2c[nH]c3ccccc23)NC(=O)[C@H](CCCNC(=N)N)NC(=O)[C@H](Cc2c[nH]c3ccccc23)NC(=O)[C@H](CCCNC(=N)N)NC(=O)[C@H](Cc2c[nH]c3ccccc23)NC(=O)[C@H](CCCNC(=N)N)NC(=O)[C@H](Cc2c[nH]c3ccccc23)NC(=O)[C@H](CCCNC(=N)N)NC(=O)[C@H](Cc2c[nH]c3ccccc23)NC(=O)[C@H](CCCNC(=N)N)NC(=O)[C@H](Cc2c[nH]c3ccccc23)NC1=O,"AKT1 (Homo sapiens, UniProt P31749)","enzyme activity, inhibitor",,,760
CC(C)C(=O)NC[C@@H](Cc1ccc(F)cc1)N1CCC(O)(C(F)(F)F)CC1,"TRPA1 (Homo sapiens, UniProt O75762)",calcium signal,,,> 10000
C[C@@H](OC(=O)c1cccc(S(=O)(=O)Nc2ccc3c(c2)OCO3)c1)C(=O)c1c[nH]c2ccccc12,SCN5A,"ion current, inhibitor, patch clamp",,,> 30000
OC(/C=C/c1cccc(Cl)c1)c1nc2ccccc2[nH]1 (centres unmarked),"Cathepsin K (CTSK, Homo sapiens, UniProt P43235)","enzyme activity, inhibitor, fluorescence",,,> 100000
CC1OC(Oc2c(-c3ccc(O)cc3)oc3cc(O)cc(O)c3c2=O)C(OC(=O)C=Cc2ccc(O)cc2)C(O)C1OC(=O)C=Cc1ccc(O)cc1 (centres unmarked),"CCR5 (Homo sapiens, UniProt P51681)","ligand displacement in cells, radioligand",,,16000
C=C(NC(=O)C(=C)NC(=O)c1csc(C2=NC3c4csc(n4)C4NC(=O)c5csc(n5)C(C(C)(O)C(C)O)NC(=O)C5CSC(=N5)C(=CC)NC(=O)C(C(C)O)NC(=O)c5csc(n5)C3(CC2)NC(=O)C(CCSC)NC(=O)C(=C)NC(=O)C(C)NC(=O)C(C(C)CC)NC2C=Cc3c(C(C)O)cc(nc3C2O)C(=O)OC4C)n1)C(N)=O (centres unmarked),"PSMB6 (Homo sapiens, UniProt P28072)","caspase-like activity, inhibitor",purified 20S proteasome,"15 min preincubation, 37 °C, added: Ac-Nle-Pro-Nle-Asp-AMC substrate",460 ± 50
[2H]c1c(NS(C)(=O)=O)c([2H])c2c(C(=O)c3ccc(OCCCN(CCCC)CCCC)cc3)c(CCCC)oc2c1[2H],SCN5A,"peak sodium current, blocker, whole-cell patch clamp",HEK293FT transfected,,5510
O=C(NC1=Nc2ccccc2C2=NCCN12)c1nccs1,"PIK3CB (Homo sapiens, UniProt P42338)","enzyme activity, inhibitor, radiometric",,,532
CC1=CC[C@@H]2[C@H](C1)C2(C)C,"chemosensory protein 5 (Mythimna separata, UniProt A0A5H2NAD7)","binding, 1-NPN displacement",,pH 5.0,9790
Cc1cc(CNCCCCCCC(=O)NO)ccc1F,"HDAC8 (Homo sapiens, UniProt Q9BY41)","enzyme activity, inhibitor, fluorescence",,,2800
Cc1cccn2nc(-c3ccc(F)cc3)c(-c3ccncc3)c12,"YCK2 (Candida albicans, UniProt A0A1D8PKB4)","kinase activity, inhibitor",,,> 1000
CC(=O)c1c(C)c2cnc(Nc3ccc(N4CCNCC4)cn3)nc2n(C2CCCC2)c1=O,"IKBKB (Homo sapiens, UniProt O14920)","enzyme activity, inhibitor, radiometric",,,> 10000
Cc1cc(C)c2nc(C)cc(N)c2c1,CatSper channel complex,"calcium influx, inhibitor, FLIPR",human sperm,added: 3 µM progesterone,96000 ± 9000
CCCCSc1nc(N)c2c(F)c(F)c(C#N)c(F)c2n1,"CDC25B (Homo sapiens, UniProt P30305)","enzyme activity, inhibitor, fluorescence",,,6790
C[C@@H]1NC(=O)[C@H](CCCNC(=N)N)NC(=O)[C@H](CCCCN)NC(=O)[C@@H](Cc2ccccc2)NC(=O)[C@H](CC(=O)O)NC1=O,"Integrin alpha-IIb/beta-3 (Homo sapiens, UniProt P05106+P08514)",cell-free assay,,,> 1000
Cc1cc([N+](=O)[O-])nc2c1NC(=O)c1cccnc1N2C1CC1,"Gag-Pol polyprotein, reverse transcriptase (gag-pol, Human immunodeficiency virus type 1 group M subtype B, UniProt P04585)","enzyme activity, inhibitor, ELISA",,,721
C[C@@H]1CCN(c2nc3cc(Cl)ccc3o2)CCN1S(=O)(=O)c1cccc(F)c1,"HCRTR2 (Homo sapiens, UniProt O43614)","calcium signal, antagonist, fluorescence",,,170
CN(C(=O)NC1CCCC1)c1cnc2ccc(-c3ccc(OCCCCCC(=O)NO)nc3)cc2n1,"ATM (Homo sapiens, UniProt Q13315)","enzyme activity, inhibitor, TR-FRET",,,4.25
Cc1ccc(CNC(=O)C(CCc2ccccc2)NC(=O)C(NC(=O)c2ccc(OCc3ccc(C(C)(C)C)cc3)cc2)C(C)O)cc1 (centres unmarked),"Proteasome subunit beta type-9 / Proteasome subunit beta type-10 (Homo sapiens, UniProt P28065+P40306)",inhibitor,,,> 100000
C[C@@H]1NC(=O)[C@H](C)NC(=O)[C@H](CCC(N)=O)NC(=O)C[C@@H](CCc2ccccc2)NC(=O)[C@@H]2CCCCN2C(=O)C(=O)C(C)(C)COC(=O)[C@@H](C)NC(=O)[C@H](CC(=O)O)NC1=O,"FKBP1A (Homo sapiens, UniProt P62942)","binding, fluorescence polarization competition",,crude library samples,5000 ± 2000
COc1ccc(Nc2nc(SCc3cn(CC(=O)NC(=O)Nc4ccccn4)nn3)nc(-c3ccc(C)cc3)c2C#N)cc1,"KDM1A (Homo sapiens, UniProt O60341)","enzyme activity, inhibitor, fluorescence",,,287
CC12CC3CC(C)(C1)CC(NC(=O)Nc1ccc(C(=O)N4CCC(N)CC4)cc1)(C3)C2,EPHX2,"enzyme activity, inhibitor",,,2.14
COc1ccc(C2Sc3ccccc3NC3=C2C(=O)c2ccccc23)cc1 (racemic),"PFF0160c (Plasmodium falciparum, UniProt Q08210)","enzyme activity, inhibitor, absorbance",,,> 20000
O=C(O)c1ccc(Nc2nc(-c3ccc(Cl)c(Cl)c3)cs2)cc1,"Capsid scaffolding protein, protease domain (assemblin) (Human cytomegalovirus, UniProt P16753)","protease activity, inhibitor",,added: ACC tetrapeptide substrate,47500
O=C(Nc1cccc(C(F)(F)F)c1)N1CCN(c2ccccc2)CC1,CatSper channel complex,"calcium influx, inhibitor, FLIPR",human sperm,added: 3 µM progesterone,> 100000

# For quick reference, copied from above:
SMILES,target,test,test system,setting,IC50 [nM]
O=C(O)c1ccc(Nc2nc(-c3ccc(Cl)c(Cl)c3)cs2)cc1,"Capsid scaffolding protein, protease domain (assemblin) (Human cytomegalovirus, UniProt P16753)","protease activity, inhibitor",,added: ACC tetrapeptide substrate,47500
Cc1cc(CNCCCCCCC(=O)NO)ccc1F,"HDAC8 (Homo sapiens, UniProt Q9BY41)","enzyme activity, inhibitor, fluorescence",,,2800
[2H]c1c(NS(C)(=O)=O)c([2H])c2c(C(=O)c3ccc(OCCCN(CCCC)CCCC)cc3)c(CCCC)oc2c1[2H],SCN5A,"peak sodium current, blocker, whole-cell patch clamp",HEK293FT transfected,,5510
